Measurements from different studies.
± gives the spread as reported.

For `N[C@@H](CC(=O)N1CCn2c(nnc2C(F)(F)F)C1)Cc1cc(F)c(F)cc1F`, “HbA1c change from baseline” read 2.63 ± 0.16 % points (ZDF rat; 10 mg/kg/day, 6 weeks; relative to: baseline).
Under “maximum GlcCer level”, `CCCCCN1C[C@H](O)[C@@H](O)[C@H](O)[C@@H]1CO` is recorded as 34.7 fold (refers to: GlcCer d18:1/18:0; wild-type mouse, cerebral cortex; oral, food admix, 30 mg/kg/day, 14 days; relative to: untreated).
`Oc1ncnc2[nH]ncc12` gave an EC50 of 30 µM (Toxoplasma gondii; parasite growth, luciferase reporter; HFF, tachyzoite; 72 h).
Under “log2 fold change”, `c1ccc(-c2n[nH]cc2-c2ccnc3ccccc23)nc1` is recorded as 1.35 (kinase binding, competitor, MIB/MS competition, refers to: NPR1; Candida albicans cell lysate; 100 nM; relative to: DMSO).
With `C[C@H](Oc1ccc(Br)cc1-c1ccon1)C(=O)O` the CMAP amplitude was -0.052 mV (muscle velocity recovery cycles; human, tibialis anterior muscle; 600 mg once daily, multiple doses, multiple ascending dose; relative to: placebo).
For `COc1cc(/C=C/C(=O)N2CCC=CC2=O)cc(OC)c1OC`, the EC50 was 6.71 µM (Toxoplasma gondii; parasite growth; HFF, bradyzoite, alkaline-induced).
`OC(CCN1CCCCC1)(c1ccccc1)C1CC2C=CC1C2` (stereo not shown) — result for “change in EEG Alpha1-power Fz-Cz”: 2% (resting-state EEG; healthy elderly humans; oral, 4 mg, eyes open, LS mean; relative to: baseline).
`N#Cc1ccc2c(-c3ccncc3)c(-c3ccc(F)cc3)nn2c1`: “log2 fold change” 0.331 (kinase binding, competitor, MIB/MS competition, refers to: CKA1; Candida albicans cell lysate; 1 µM; relative to: DMSO).
For `C[C@]12CC[C@@H]3c4ccc(O)cc4CC[C@H]3[C@@H]1CC[C@@H]2O`, the mRNA level was 0.0127 (RT-qPCR, refers to: CO; Arabidopsis thaliana ING1:FLAG seedlings; dose not given, 6 h (ZT12), unit not given; relative to: TUB2).
`CC(C)NCC(O)c1ccc(O)c(O)c1` (stereo not shown) has a sarcomere length of 1.72 µm (ventricular cardiomyocytes, C57BL/6 mouse; dose not given, 0.336 s).
`NC(=O)c1cnc2[nH]ccc2c1N[C@@H]1[C@@H]2CC3C[C@H]1C[C@@](O)(C3)C2` — result for “CD8+ effector memory change”: 0.32% (flow cytometry; Japanese healthy men, blood; oral, 30 mg twice daily, 72 h after day 7 dose; relative to: baseline).
`N#Cc1ccc2c(c1)[C@H]1CCCN(C(=O)c3ccc4[nH]cnc4c3)[C@H]1C2`: “change from baseline” -0.24 kg (refers to: body weight; human; 20 mg once daily, day 28, adjusted mean; relative to: placebo).
The plasma TG of `COc1cc(/C=C/C(=O)CC(=O)/C=C/c2ccc(O)c(OC)c2)ccc1O` is reported as 0.76 ± 0.18 mmol/L (high-fat diet hyperlipidaemic rat; oral, 200 mg/kg daily, 4 weeks).
`O=C(O)CNC(=O)Cc1ccccc1` has a sarcomere length of 1.71 µm (ventricular cardiomyocytes, C57BL/6 mouse; dose not given, 0.64 s).
`C[C@H]1C[C@H]2CSC(N)=N[C@@]2(c2nc(NC(=O)c3ccc(OC(F)F)cn3)cs2)CO1`: “percent change from baseline” -40.5% (refers to: Aβx-40; healthy adults, plasma; 5 mg once daily, day 4; relative to: placebo).
For `COc1ccc(-c2cncc(N[C@@H](C)c3cccc(NC(=O)c4cncc(C)c4)c3)n2)cc1OC`, the fold change was 1.68 (refers to: rno-miR-17-5p; rat SU5416/hypoxia model, lung; dose not given; relative to: SU5416/hypoxia vehicle).

Some of these lines once more:
`CC(C)NCC(O)c1ccc(O)c(O)c1` (stereo not shown) has a sarcomere length of 1.72 µm (ventricular cardiomyocytes, C57BL/6 mouse; dose not given, 0.336 s).
